Measured values gathered from unrelated publications.
Protocols differ between the studies behind these lines. “And” joins repeats or separate records; there may be more than shown. Numbers after ± are the reported error.

SMILES | assay | test system | setting | scale | endpoint | value
O=C1NC2(CC2)COc2ncc(F)cc2[C@H]2COCCN2c2ccn3ncc1c3n2 |  | Sprague-Dawley rat, female, serum | oral, 10 mg/kg/day, 4 weeks daily, end of treatment |  | pancreatic amylase activity | 1380 ± 366 U/L
N=C(N)NCCC[C@H](NC(=O)[C@H](CCCNC(=N)N)NC(=O)[C@H](CCCNC(=N)N)NC(=O)[C@H](CCC(N)=O)NC(=O)[C@H](CCCNC(=N)N)NC(=O)[C@H](CCCNC(=N)N)NC(=O)[C@H](CCCCN)NC(=O)[C@H](CCCCN)NC(=O)[C@H](CCCNC(=N)N)NC(=O)CNC(=O)[C@H](Cc1ccc(O)cc1)NC(=O)[C@H](Cc1ccccc1)NC(=O)[C@H](Cc1ccccc1)NC(=O)[C@H](Cc1ccccc1)NC(=O)Cc1ccc2ccccc2c1)C(=O)O |  | C57BL/6 mice | intraperitoneal, 10 mg/kg, 6 h | direction not given | health score | 5
CC(C)C[C@H](NC(=O)[C@H](Cc1ccc(O)cc1)NC(=O)[C@H](C)NC(=O)[C@@H](NC(=O)[C@H](CC(C)C)NC(=O)[C@H](C)NC(=O)[C@H](C)NC(=O)[C@H](CCCCN)NC(=O)CNC(=O)[C@@H](NC(=O)[C@H](Cc1c[nH]cn1)NC(=O)[C@H](CCCCN)NC(=O)CNC(=O)[C@@H](NC(=O)[C@H](Cc1c[nH]cn1)NC(=O)[C@@H](NC(=O)[C@H](C)NC(=O)[C@H](CCCCN)NC(=O)[C@H](CCCCN)NC(=O)[C@H](Cc1ccccc1)NC(=O)[C@H](Cc1c[nH]c2ccccc12)NC(=O)[C@H](CCCCN)NC(=O)CNC(=O)[C@H](Cc1c[nH]c2ccccc12)NC(=O)[C@@H](N)CCCNC(=N)N)[C@@H](C)O)C(C)C)C(C)C)[C@@H](C)O)C(N)=O |  | zebrafish embryos 4 hpf, E3 medium | 24 h |  | chronic toxic concentration | 5 µM
CC1(C)C(=O)N(c2ccc(C#N)c(C(F)(F)F)c2)C(=S)N1c1ccc(C(=O)O)c(F)c1 |  | male human, plasma | oral, 80 mg, single dose, fasted |  | AUC | 25000 ng·h/mL
CSCC[C@H](NC(=O)[C@H](CC(C)C)NC(=O)[C@H](CCC(N)=O)NC(=O)[C@H](C)NC(=O)[C@H](Cc1c[nH]c2ccccc12)NC(=O)[C@H](Cc1ccc(O)cc1)NC(=O)[C@H](CCC(=O)O)NC(=O)[C@H](CC(C)C)NC(=O)[C@H](Cc1ccccc1)NC(=O)[C@@H](NC(=O)[C@H](CC(C)C)NC(=O)[C@H](CCCCN)NC(C)=O)[C@@H](C)O)C(=O)N[C@@H](CCC(N)=O)C(=O)N[C@@H](CCCCN)C(=O)NCCCCCC(=O)N[C@@H](CCCCN)C(=O)N[C@@H](CC(C)C)C(=O)N[C@H](C(=O)N[C@@H](Cc1ccccc1)C(=O)N[C@@H](CC(C)C)C(=O)N[C@@]1(C)CCCC=CCCC[C@@](C)(C(=O)N[C@@H](CC(C)C)C(=O)N[C@@H](CCSC)C(=O)N[C@@H](CCC(N)=O)C(=O)N[C@@H](CCCCN)C(N)=O)NC(=O)[C@H](C)NC(=O)[C@H](Cc2c[nH]c3ccccc23)NC(=O)[C@H](Cc2ccc(O)cc2)NC1=O)[C@@H](C)O | circular dichroism | phosphate buffer | pH 7.2, room temperature |  | helical content | 73.6%
CSCC[C@H](NC(=O)CNC(=O)[C@H](CCCCN)NC(=O)[C@H](CC(C)C)NC(=O)[C@@H]1CCCN1C(=O)[C@H](CO)NC(=O)[C@H](Cc1c[nH]cn1)NC(=O)[C@H](Cc1c[nH]c2ccccc12)NC(=O)[C@H](CCCNC(=N)N)NC(=O)[C@H](CC(C)C)NC(=O)[C@H](CCCNC(=N)N)NC(=O)[C@H](Cc1c[nH]c2ccccc12)NC(=O)[C@H](CS)NC(=O)CCCCCNC(=O)CN1CCN(CC(=O)O)CCN(CC(=O)O)CCN(CC(=O)O)CC1)C(=O)O [copper-64 labelled] |  | BALB/c nude mouse, Huh-7 tumour, tumour and blood | intravenous, 1.85 MBq, 2 h, ex vivo biodistribution | baseline: tumour over blood | tumour-to-blood ratio | 2.87
CC[C@H](C)[C@H](NC(=O)[C@H](CCCCN)NC(=O)CNC(=O)[C@H](CC(C)C)NC(=O)[C@H](Cc1ccccc1)NC(=O)[C@H](CCCCN)NC(=O)[C@H](CO)NC(=O)[C@H](Cc1ccccc1)NC(=O)[C@H](Cc1c[nH]c2ccccc12)NC(=O)[C@H](CCC(N)=O)NC(=O)[C@@H](NC(=O)[C@H](Cc1ccccc1)NC(=O)CCCCCNC(=O)CN1CCN(CC(=O)O)CCN(CC(=O)O)CCN(CC(=O)O)CC1)C(C)C)C(=O)N[C@@H](CCC(=O)O)C(=O)N1CCC[C@H]1C(=O)N[C@@H](CC(=O)O)C(=O)N[C@H](C(=O)N[C@@H](CO)C(=O)N[C@@H](CCC(N)=O)C(=O)N[C@H](C(=O)N[C@@H](CCC(N)=O)C(=O)N[C@@H](CC(=O)O)C(=O)N1CCC[C@H]1C(=O)N[C@@H](CC(N)=O)C(=O)N[C@@H](CC(=O)O)C(=O)N[C@@H](CCC(N)=O)C(=O)N[C@@H](Cc1ccc(O)cc1)C(=O)N[C@@H](CCC(=O)O)C(=O)N1CCC[C@H]1C(=O)N[C@@H](Cc1ccccc1)C(=O)O)C(C)C)C(C)C [copper-64 labelled] |  | BALB/c mice, male, CT26 tumour-bearing, muscle | 2 h, anti-PD1 plus anti-CTLA4 treated |  | tissue uptake | 0.35 ± 0.1 %ID/g
CC(C)Oc1cccc(/N=N/c2ccc3[nH]cc(CCN(C)C)c3c2)c1 | light irradiation | solution | with: light 385 nm |  | cis isomer at photostationary state | 83%
CC(=O)CCC1C(=O)NC(C(C)C)C(=O)NC(Cc2cc(O)cc(F)c2)C(=O)N2CCCC(N2)C(=O)OC(C(C)=CC=CC(=O)N2CCCCO2)CC=CC=CC(O)C(C)C1O (stereo not drawn) |  | male Sprague-Dawley rat, lung | oral, 5 mg/kg |  | AUC | 2740 ng·h/mL
CSCC[C@H](N)C(=O)N[C@@H](C)C(=O)N[C@@H](CCCNC(=N)N)C(=O)N[C@@H](CCCNC(=N)N)C(=O)N[C@@H](CC(=O)O)C(=O)N[C@@H](CCCCN)C(=O)N[C@H](C(=O)N[C@@H](CC(=O)O)C(=O)N[C@@H](Cc1ccccc1)C(=O)N[C@@H](C)C(=O)N[C@@H](CCCNC(=N)N)C(=O)N[C@@H](CCCNC(=N)N)C(=O)N[C@@H](CCCNC(=N)N)C(=O)N[C@@H](CCCNC(=N)N)C(=O)NCCCCCC(=O)NCCCCC(NC(=O)CCCCCNC(=O)[C@H](CCCNC(=N)N)NC(=O)[C@H](CCCNC(=N)N)NC(=O)[C@H](CCCNC(=N)N)NC(=O)[C@H](CCCNC(=N)N)NC(=O)[C@H](C)NC(=O)[C@H](Cc1ccccc1)NC(=O)[C@H](CC(=O)O)NC(=O)[C@@H](NC(=O)[C@H](CCCCN)NC(=O)[C@H](CC(=O)O)NC(=O)[C@H](CCCNC(=N)N)NC(=O)[C@H](CCCNC(=N)N)NC(=O)[C@H](C)NC(=O)[C@@H](N)CCSC)[C@@H](C)O)C(=O)NCCCCC(NC(=O)C(CCCCNC(=O)CCCCCNC(=O)[C@H](CCCNC(=N)N)NC(=O)[C@H](CCCNC(=N)N)NC(=O)[C@H](CCCNC(=N)N)NC(=O)[C@H](CCCNC(=N)N)NC(=O)[C@H](C)NC(=O)[C@H](Cc1ccccc1)NC(=O)[C@H](CC(=O)O)NC(=O)[C@@H](NC(=O)[C@H](CCCCN)NC(=O)[C@H](CC(=O)O)NC(=O)[C@H](CCCNC(=N)N)NC(=O)[C@H](CCCNC(=N)N)NC(=O)[C@H](C)NC(=O)[C@@H](N)CCSC)[C@@H](C)O)NC(=O)CCCCCNC(=O)[C@H](CCCNC(=N)N)NC(=O)[C@H](CCCNC(=N)N)NC(=O)[C@H](CCCNC(=N)N)NC(=O)[C@H](CCCNC(=N)N)NC(=O)[C@H](C)NC(=O)[C@H](Cc1ccccc1)NC(=O)[C@H](CC(=O)O)NC(=O)[C@@H](NC(=O)[C@H](CCCCN)NC(=O)[C@H](CC(=O)O)NC(=O)[C@H](CCCNC(=N)N)NC(=O)[C@H](CCCNC(=N)N)NC(=O)[C@H](C)NC(=O)[C@@H](N)CCSC)[C@@H](C)O)C(N)=O)[C@@H](C)O (stereo partly drawn) |  | C57BL/6 mouse female, uterus | dose not given, 6 h | baseline: total | mean tissue distribution | 1.33%
N#[11C]c1ccc(-c2csc(NN=C3CCCC3)n2)cc1 |  | C57BL/6 mouse, male | intravenous, 3 MBq, 30 min |  | uptake in blood | 3.27 ± 0.47 %ID/g
COc1cc2c(cc1O)C(CCc1ccc(Cl)cc1)N([11CH3])CC2 (stereo not drawn) | PET | Sprague-Dawley rat, male, brain | intravenous, 20.5 MBq, no carrier added |  | time to peak brain radioactivity | ~5 min
CC[C@H](C)[C@H](NC(=O)[C@H](C)NC(=O)[C@H](CCCCN)NC(=O)[C@H](CC(C)C)NC(=O)[C@@H](N)Cc1ccccc1)C(=O)N[C@@H](CCCCN)C(=O)N[C@@H](CCCCN)C(=O)N[C@@H](Cc1ccccc1)C(=O)NCC(=O)N[C@@H](CCCCN)C(=O)N[C@@H](CCC(=O)O)C(=O)N[C@@H](Cc1ccccc1)C(=O)N[C@@H](CCCCN)C(=O)N[C@@H](CCCCN)C(=O)N[C@H](C(=O)NCC(=O)N[C@@H](C)C(=O)N[C@@H](CCCCN)C(=O)N[C@@H](CC(C)C)C(=O)N[C@@H](CCCCN)C(=O)O)[C@@H](C)CC |  | human red blood cells | 0.25 mg/L, 1 h |  | hemolysis | 0.0204% and 0.633%
CC(C)C[C@@H](NC(=O)[C@@H](CCCNC(=N)N)NC(=O)[C@@H](Cc1c[nH]cn1)NC(=O)[C@@H](Cc1c[nH]c2ccccc12)NC(=O)[C@@H](Cc1c[nH]cn1)NC(=O)[C@@H](Cc1ccccc1)NC(=O)[C@H](NC(=O)[C@@H](Cc1ccc(O)cc1)NC(=O)CNC(=O)CNC(=O)CCOCCOCCOCCNC(=O)CN1CCN(CC(=O)O)CCN(CC(=O)O)CC1)[C@H](C)O)C(=O)N[C@H](CC(N)=O)C(=O)N1CCC[C@@H]1C(=O)O [gallium-68 labelled] |  | male C57BL/6 mice | intravenous, 1.85 MBq, 120 min | baseline: tumour over brain | tumour-to-tissue ratio | 6.78 ± 1.03
C[C@H](O)[C@@H](NC(=O)[C@H]1CCCN1C(=O)[C@@H](CCCCN)NC(=O)[C@@H](CO)NC(=O)[C@@H](Cc1ccc(O)cc1)NC(=O)[C@@H](CC(N)=O)NC(=O)CCOCCOCCOCCNC(=O)CN1CCN(CC(=O)O)CCN(CC(=O)O)CCN(CC(=O)O)CC1)C(=O)N[C@H](CC(=O)O)C(=O)N[C@H](CCCNC(=N)N)C(=O)N[C@H](CCC(N)=O)C(=O)N[C@H](Cc1ccc(O)cc1)C(=O)N[C@H](Cc1c[nH]cn1)C(=O)N[C@H](Cc1ccccc1)C(N)=O [copper-64 labelled] | ex vivo gamma counting | C57BL/6J mouse, normal, small intestine | intravenous, 1.85 MBq, 20 min |  | tissue uptake | 1.36 ± 0.36 %ID/g
COc1ccc(CNc2ccc3c(c2)S(=O)(=O)C=C3)cc1 | flow cytometry | male C57BL/6 mice, spleen | i.p., 5 mg/kg, 8 days | baseline: CD45+ cells | CD4+ cells | 16.2%
CN1Cc2cc(Cl)ccc2-n2c(nnc2C2CCN(c3cccc([18F])n3)CC2)C1 |  | C57BL/6 mouse male, small intestine | intravenous, dose not given, 30 min, with: blocking agent 10 mg/kg |  | tissue uptake | 12.9 ± 8.7 %ID/g
CC(C)[C@@H]1NC(=O)CNC(=O)[C@H](CC(N)=O)NC(=O)[C@H](CCCNC(=N)N)NC(=O)[C@H](Cc2ccc(O)cc2)NC(=O)[C@H](C(C)C)NC(=O)[C@@H](NC(=O)[C@@H](NC(=O)[C@H](CC(N)=O)NC(=O)[C@H](Cc2c[nH]c3ccccc23)NC(=O)[C@H](C)NC(=O)[C@H](Cc2ccccc2)NC(=O)CNC(=O)[C@H](CCCCN)NC(=O)[C@H](Cc2ccccc2)NC(=O)[C@H](Cc2ccccc2)NC(=O)[C@H](CCCCN)NC(=O)OCC2c3ccccc3-c3ccccc32)C(C)C)CSSC[C@@H](C(=O)N[C@@H](Cc2c[nH]cn2)C(=O)N[C@@H](CCCNC(=N)N)C(=O)N[C@@H](CCCNC(=N)N)C(=O)N[C@@H](C)C(=O)N[C@@H](CC(N)=O)C(N)=O)NC(=O)[C@H](C(C)C)NC(=O)[C@H](CCCNC(=N)N)NC1=O |  | ICR mice, serum | intraperitoneal, 10 mg/kg, day 5 |  | creatinine | 83.2 ± 3.68 µmol/L
